Experimental data from different studies.
Protocols differ between the studies behind these lines. ± marks the error that the study gave.

Compound | test | test system | conditions | scale | endpoint | value
CN(C)C(CNC(=O)Nc1cc(C(F)(F)F)ccc1N1CCOCC1)c1ccncc1 (centres unmarked) | – | mouse, serum | intraperitoneal, 120 mg/kg single dose | – | amylase | 559 U/L
CCN(CC)CCOc1ccc(-c2nnn(Cc3ccc(OC)cc3)c2N)cc1 | – | beagle dogs, plasma | 120 min | – | stability | stable
N=C(N)NCc1ccc(C(=O)NCCCC[C@H](NC(=O)CCCCCCC(=O)NCCCC[C@H](NC(=O)N[C@@H](CCC(=O)O)C(=O)O)C(=O)O)C(=O)O)cc1[131I] | – | SCID mouse, PC-3 xenografts, heart | 21 h | – | tissue uptake | 0.02 ± 0.01 %ID/g
COCCOCCOCCOc1ccc(/C=C/c2c(I)c(C)c3n2[B-](F)(F)[N+]2=C(C)C(I)=C(C)C2=C3c2cc(OC)cc(OC)c2)cc1 | – | DMSO | – | reference: methylene blue | fluorescence quantum yield | 0.52
CC(C)C[C@H](NC(=O)[C@H](CCCCN)NC(=O)[C@H](CCC(=O)O)NC(=O)[C@H](C)NC(=O)[C@@H](NC(=O)[C@H](CCCCN)NC(=O)[C@H](CC(=O)O)NC(=O)[C@H](Cc1ccc(O)cc1)NC(=O)[C@H](Cc1ccccc1)NC(=O)[C@H](C)NC(=O)[C@H](CCCCN)NC(=O)[C@H](CC(C)C)NC(=O)[C@H](Cc1c[nH]c2ccccc12)NC(=O)[C@@H](N)CC(=O)O)C(C)C)C(=O)N[C@@H](CCCCN)C(=O)N[C@@H](CCC(=O)O)C(=O)N[C@@H](C)C(=O)N[C@@H](Cc1ccccc1)C(=O)N1CCC[C@H]1C(=O)N[C@@H](CC(=O)O)C(=O)N[C@@H](Cc1c[nH]c2ccccc12)C(=O)N[C@@H](C)C(=O)N[C@@H](CCCCN)C(=O)N[C@@H](C)C(=O)N[C@@H](C)C(=O)N[C@@H](Cc1ccc(O)cc1)C(=O)N[C@@H](CC(=O)O)C(=O)N[C@@H](CCCCN)C(=O)N[C@@H](C)C(=O)N[C@@H](C)C(=O)N[C@@H](CCC(=O)O)C(=O)N[C@@H](CCCCN)C(=O)N[C@@H](C)C(=O)N[C@@H](CCCCN)C(=O)N[C@@H](CCC(=O)O)C(=O)N[C@@H](C)C(=O)N[C@@H](C)C(=O)O | – | cynomolgus monkey female, plasma | intravenous infusion, 25 mg/kg every other day, day 27 | – | AUC(0-last) | 2470 µg·h/mL
CC[C@H](C)[C@H](NC(=O)[C@H](CCC(=O)O)NC(=O)[C@H](CCC(=O)O)NC(=O)[C@H](Cc1ccccc1)NC(=O)[C@H](CC(=O)O)NC(=O)CNC(=O)[C@H](CC(N)=O)NC(=O)CNC(=O)CNC(=O)CNC(=O)CNC(=O)[C@@H]1CCCN1C(=O)[C@H](CCCNC(=N)N)NC(=O)[C@@H]1CCCN1C(=O)[C@H](N)Cc1ccccc1)C(=O)N1CCC[C@H]1C(=O)N[C@@H](CCC(=O)O)C(=O)N[C@@H](CCC(=O)O)C(=O)N[C@@H](Cc1ccc(O)cc1)C(=O)N[C@@H](CC(C)C)C(=O)O | LC-MS/MS | human plasma | 4 h, 25 °C, stability, nominal 30.0 ng/mL | – | concentration | 29.8 ± 0.5 ng/mL
Cc1cccc(-c2cccc(C)n2)n1.[Cl-].[Cl-].[Ru+2].c1ccc(-c2ccccn2)nc1.c1ccc(-c2ccccn2)nc1 | – | phosphate buffer with NaCl | concentration not given, pH 7.4, 37 °C, dark, dialysis | – | total release from nanoassemblies | 90%
CN[C@](C)(C[18F])C(=O)O | – | SCID mouse MDA-MB-468 xenograft, brain | 30 min, post injection | – | tissue uptake | 0.3 ± 0.1 %ID/g
COc1ccc(C)cc1NC(=O)OC1CC2CCCC(C1)N2Cc1ccc(CC[18F])cc1 (centres unmarked) | – | mouse, fat | 1 h, tumour-bearing | – | tracer uptake | 8.49 %ID/g
[11CH3]n1c(=O)n(CCCO)c(=O)c2c1nc(Oc1cccc(OC(F)(F)F)c1)n2Cc1ccc(Cl)cc1 | ex vivo biodistribution | Sprague Dawley rat, spleen | 60 min post injection | – | tracer uptake | 0.37 ± 0.06 %ID/g
CC[C@H](C)C(=O)N1CCC(NC(=O)Nc2ccc(OC(F)(F)F)c(F)c2)CC1 | – | human, plasma | oral, 24 mg, single dose, healthy volunteers | – | AUC(0-inf) | 9.31 µg·h/mL
C[C@@H](NC(=O)[C@@H](CCC(N)=O)NC(=O)[C@@H](C)NC(=O)[C@@H](CCCCN)NC(=O)[C@@H](CCC(N)=O)NC(=O)[C@@H](C)NC(=O)[C@@H](CCCCN)NC(=O)[C@@H](CCC(N)=O)NC(=O)[C@@H](C)NC(=O)[C@@H](CCC(N)=O)NC(=O)[C@@H](CCCCN)NC(=O)[C@@H](C)NC(=O)[C@@H](CCC(N)=O)NC(=O)[C@@H](CCCCN)NC(=O)[C@@H](C)NC(=O)[C@@H](CCC(N)=O)NC(=O)[C@@H](C)NC(=O)[C@@H](CCCCN)NC(=O)[C@@H](CCC(N)=O)NC(=O)[C@@H](C)NC(=O)[C@@H](CCCCN)NC(=O)[C@@H](CO)NC(=O)[C@@H](Cc1ccc(O)cc1)NC(=O)CNC(=O)CNC(=O)CN)C(=O)N[C@H](CCCCN)C(=O)N[C@H](CCC(N)=O)C(=O)N[C@H](C)C(=O)N[C@H](CCCCN)C(=O)N[C@H](CCC(N)=O)C(=O)O | helical structure, circular dichroism | PBS | 0.05 mg/mL, pH 7.5 | – | transition midpoint | ~16 % TFE
CC(CCC(=O)NCC(=O)O)C1CCC2C3CCC4CC(OC5OC(C(=O)O)C(O)C(O)C5O)CCC4(C)C3CC(O)C12C (centres unmarked) | – | human, SLCO1B1 *15/*15, plasma | geometric mean, sex-adjusted | – | plasma concentration | 345 ng/mL
O=C(CCCCCCC(=O)Nc1ccccc1N=Nc1ccccc1)NO | 1H NMR | DMSO | irradiation 365 nm | – | cis isomer content | 83%
CC(C)[C@H](NC(=O)CNC(=O)[C@H](CCC(N)=O)NC(=O)[C@H](C)N)C(=O)O | – | healthy male volunteers | intravenous, 45 mg/kg/h, 2 h, added: LPS 2 ng/kg | – | subjects with unrelated AE | 25%
CCCCCCCC/C=C\CCCCCCCCOP(O)(O)=S.N | – | mouse, female, nonirradiated | subcutaneous, single dose | – | Vz/F | 1.73 L/kg
COC(=O)C[C@H](NC(=O)[C@H](C)NC(=O)[C@@H](NC(=O)[C@H](CC(=O)OC)NC(=O)[C@@H](NC(=O)c1ccc2ccccc2n1)C(C)C)C(C)C)C(=O)COc1c(F)cccc1F | echography | rat pups | 1 mg/kg, 1 h | – | left ventricular output | 0.157 ± 0.015 mL/min
[2H]C([2H])([2H])C([2H])([2H])C([2H])([2H])OC(C(=O)OC1CCNCC1)(c1ccccc1)c1ccccc1 | measured: oropharyngeal pain | healthy Japanese male | oral, 15 mg once daily, 16 days | – | adverse events | 14.3%
NC(=O)[C@@H](Cc1ccccc1)N[11C](=O)OCc1ccccc1 | PET | male Wistar rat | intravenous, 10 min, added: self-blocking 3 µmol/kg i.v. 3 min before | – | spinal cord SUV | 1 SUV
CC(C)[C@H](NC(=O)CNC(=O)[C@H](CCC(N)=O)NC(=O)[C@H](C)N)C(=O)O | Definitely drug-related | human | 10 mg/kg, 3 days, thrice daily dosing | – | subjects with adverse events | 0%
C[C@@H](O)[C@H](NC(=O)[C@H](CCCCN)NC(=O)[C@H](Cc1c[nH]c2ccccc12)NC(=O)CN)C(=O)N[C@@H](CCCNC(=N)N)C(=O)NC(C)(C)C(=O)N[C@@H](CCCNC(=N)N)C(=O)NC(C)(C)C(=O)N[C@H](C(=O)N[C@@H](CO)C(=O)N[C@@H](Cc1c[nH]cn1)C(=O)N[C@@H](Cc1ccc(O)cc1)C(=O)NCC(=O)O)[C@@H](C)O | – | C57BL/6 mouse, blood | intravenous, 50 mg/kg, 10 h | – | granulocytes | 7 to 13%
CCCC[C@H](NC(=O)CN1CCC(NC(=O)CN2CCC(NC(=O)CN3CCN(CC(=O)O)CCN(CC(=O)O)CCN(CC(=O)O)CC3)CC2)CC1)C(=O)N[C@H]1CC(=O)NCCCC[C@@H](C(N)=O)NC(=O)[C@H](Cc2c[nH]c3ccccc23)NC(=O)[C@H](CCCNC(=N)N)NC(=O)[C@@H](Cc2ccccc2)NC(=O)[C@H](Cc2c[nH]cn2)NC1=O [gallium-68 labelled] | biodistribution | C57BL/6J mouse male tumour-bearing | 1 h post injection, unblocked | reference: tumour over muscle | tumour to muscle ratio | 53.3 ± 13
CN(C)c1ccc(C(=O)NCCCCN2CCN(c3ccccc3O[11CH3])CC2)cc1 | – | male Sprague Dawley rat, liver | iv, dose not given, added: cyclosporin A pretreatment | reference: cyclosporin A over untreated | uptake ratio | 0.96

A few entries again:
Compound | test | test system | conditions | scale | endpoint | value
CC[C@H](C)C(=O)N1CCC(NC(=O)Nc2ccc(OC(F)(F)F)c(F)c2)CC1 | – | human, plasma | oral, 24 mg, single dose, healthy volunteers | – | AUC(0-inf) | 9.31 µg·h/mL
COc1ccc(C)cc1NC(=O)OC1CC2CCCC(C1)N2Cc1ccc(CC[18F])cc1 (centres unmarked) | – | mouse, fat | 1 h, tumour-bearing | – | tracer uptake | 8.49 %ID/g
Cc1cccc(-c2cccc(C)n2)n1.[Cl-].[Cl-].[Ru+2].c1ccc(-c2ccccn2)nc1.c1ccc(-c2ccccn2)nc1 | – | phosphate buffer with NaCl | concentration not given, pH 7.4, 37 °C, dark, dialysis | – | total release from nanoassemblies | 90%
CCCCCCCC/C=C\CCCCCCCCOP(O)(O)=S.N | – | mouse, female, nonirradiated | subcutaneous, single dose | – | Vz/F | 1.73 L/kg
